# Measurements of several laboratories.
# Each line is one published result; not all experiments were run side by side. ± gives the spread as reported.
SMILES,test,test system,conditions,Cmax
CCc1c2c(nc3ccc(O)cc13)-c1cc3c(c(=O)n1C2)COC(=O)[C@]3(O)CC,,"human patients, plasma","intravenous, 32 mg/m^2 of parent drug",98 ng/mL
CC[C@H](C)[C@H](NC(=O)[C@H](CC(C)C)NC(=O)[C@H](Cc1c[nH]c2ccccc12)NC(=O)[C@H](C)NC(=O)[C@@H](NC(=O)[C@H](Cc1ccccc1)NC(=O)[C@H](CC(=O)O)NC(=O)[C@H](CCCNC(=N)N)NC(=O)[C@H](C)NC(=O)[C@H](C)NC(=O)[C@H](CC(C)C)NC(=O)[C@H](C)NC(=O)[C@H](CC(=O)O)NC(=O)[C@H](CC(C)C)NC(=O)[C@@H](NC(=O)[C@@H](NC(=O)[C@H](C)NC(=O)[C@H](CC(C)C)NC(=O)[C@H](CCC(=O)O)NC(=O)[C@H](CO)NC(=O)[C@H](CO)NC(=O)[C@H](Cc1ccccc1)NC(=O)[C@@H](NC(=O)CNC(=O)[C@H](CCC(=O)O)NC(=O)CNC(=O)[C@@H](N)Cc1c[nH]cn1)[C@@H](C)O)[C@@H](C)O)[C@@H](C)CC)[C@@H](C)CC)C(=O)N[C@@H](C)C(=O)N[C@H](C(=O)N[C@@H](CCCCN)C(=O)N[C@H](C(=O)N[C@H](C(=O)N[C@@H](CC(=O)O)C(=O)N[C@@H](CCCCN)C(=O)O)[C@@H](C)O)[C@@H](C)CC)[C@@H](C)O,immunoaffinity LC-MS/MS,"healthy human subjects, plasma","subcutaneous, 10 mg once weekly, day 36 after 6 doses, steady state, geometric mean",5.32 nM
CC(=O)Nc1ccc(C(N)=O)c(F)c1,,"human, plasma","oral, 25 mg",30.7 µg-eq/L
CCCOc1ccc(S(N)(=O)=O)cc1-c1nc2c(CCC)nn(C)c2c(=O)[nH]1,,"healthy male humans, plasma","oral, 200 mg of udenafil",394 ± 87.7 ng/mL
[2H]C([2H])([2H])Oc1cc2c(cc1OC([2H])([2H])[2H])[C@H]1CC(=O)[C@H](CC(C)C)CN1CC2,,"human CYP2D6 extensive metabolizers, plasma","oral, 25 mg, fasted, geometric mean",0.27 ng/mL
CCc1cc(Nc2nc(-c3ccc(-n4cnc(C)c4)c(F)c3)cs2)c(C)cc1C,,"human, both sexes, plasma","oral, 100 mg, day 1, multiple dose, geometric mean",322 ng/mL
O=C(CCc1ccc(CNC(C(=O)O)C2CCCCC2)cn1)NO (stereo not drawn),,"human, plasma","oral, 20 mg once daily, day 1, geometric mean",78 ng/mL
CN1CCC[C@]1(C)/C=C/S(=O)(=O)NC(=O)Nc1c2c(cc3c1CCC3)CCC2,,"human, plasma","oral, 12.5 to 100 mg twice daily, 14 days, first dose at steady state",2000 to 16400 ng/mL
CC(C)(O)c1ncc([S@](N)(=O)=NC(=O)Nc2c3c(cc4c2CCC4)CCC3)s1,,healthy human,"oral, 100 mg once daily, day 1, spray-dried dispersion, geometric mean",10700 ng/mL
C=CC(=O)Nc1cc(Nc2nccc(-c3cn(C4CC4)c4ccccc34)n2)c(OC)cc1N(C)CCNC,,"healthy Chinese male human, plasma","oral, 110 mg almonertinib, metabolite, [14C] single dose",22.2 ± 3.94 ng/mL
Cn1c(=O)oc2ccc(-c3ccc(CC(C#N)NC(=O)C4CNCCCO4)c(F)c3)cc21 (stereo not drawn),,"human, fed, plasma","40 mg single dose, geometric mean",162 ng/mL
CC[C@H](C)[C@H](NC(=O)[C@H](CC(C)C)NC(=O)[C@H](Cc1c[nH]c2ccccc12)NC(=O)[C@H](C)NC(=O)[C@@H](NC(=O)[C@H](Cc1ccccc1)NC(=O)[C@H](CC(=O)O)NC(=O)[C@H](CCCNC(=N)N)NC(=O)[C@H](C)NC(=O)[C@H](C)NC(=O)[C@H](CC(C)C)NC(=O)[C@H](C)NC(=O)[C@H](CC(=O)O)NC(=O)[C@H](CC(C)C)NC(=O)[C@@H](NC(=O)[C@@H](NC(=O)[C@H](C)NC(=O)[C@H](CC(C)C)NC(=O)[C@H](CCC(=O)O)NC(=O)[C@H](CO)NC(=O)[C@H](CO)NC(=O)[C@H](Cc1ccccc1)NC(=O)[C@@H](NC(=O)CNC(=O)[C@H](CCC(=O)O)NC(=O)CNC(=O)[C@@H](N)Cc1cnc[nH]1)[C@@H](C)O)[C@@H](C)O)[C@@H](C)CC)[C@@H](C)CC)C(=O)N[C@@H](C)C(=O)N[C@H](C(=O)N[C@@H](CCCCN)C(=O)N[C@H](C(=O)N[C@H](C(=O)N[C@@H](CC(=O)O)C(=O)N[C@@H](CCCCN)C(=O)N[C@@H](CCCCN)C(=O)N[C@@H](CCCCN)C(=O)N[C@@H](CCCCN)C(=O)N[C@@H](CCCCN)C(=O)N[C@@H](CCCCN)C(N)=O)[C@@H](C)O)[C@@H](C)CC)[C@@H](C)O,immunoaffinity LC-MS/MS,"healthy human subjects, plasma","intravenous infusion, 1 mg, 15 min infusion",54.9 nM
Cc1nc(C)c(C=[N+]([O-])C(C)(C)C)nc1C,,"human both sexes, serum","oral, 1200 mg twice daily, 7 days, tablet",114000 nM
CC[C@H](C)[C@H](NC(=O)[C@H](CC(C)C)NC(=O)[C@H](Cc1c[nH]c2ccccc12)NC(=O)[C@H](C)NC(=O)[C@@H](NC(=O)[C@H](Cc1ccccc1)NC(=O)[C@H](CC(=O)O)NC(=O)[C@H](CCCNC(=N)N)NC(=O)[C@H](C)NC(=O)[C@H](C)NC(=O)[C@H](CC(C)C)NC(=O)[C@H](C)NC(=O)[C@H](CC(=O)O)NC(=O)[C@H](CC(C)C)NC(=O)[C@@H](NC(=O)[C@@H](NC(=O)[C@H](C)NC(=O)[C@H](CC(C)C)NC(=O)[C@H](CCC(=O)O)NC(=O)[C@H](CO)NC(=O)[C@H](CO)NC(=O)[C@H](Cc1ccccc1)NC(=O)[C@@H](NC(=O)CNC(=O)[C@H](CCC(=O)O)NC(=O)CNC(=O)[C@@H](N)Cc1c[nH]cn1)[C@@H](C)O)[C@@H](C)O)[C@@H](C)CC)[C@@H](C)CC)C(=O)N[C@@H](C)C(=O)N[C@H](C(=O)N[C@@H](CCCCN)C(=O)N[C@H](C(=O)N[C@H](C(=O)N[C@@H](CC(=O)O)C(=O)N[C@@H](CCCCN)C(=O)N[C@@H](CCCCN)C(=O)O)[C@@H](C)O)[C@@H](C)CC)[C@@H](C)O,immunoaffinity LC-MS/MS,"healthy human subjects, plasma","subcutaneous, 10 mg once weekly, day 36 after 6 doses, steady state, geometric mean",0.716 nM
CCCCCCCCCC(O)CC(=O)CCc1ccc(O)c(OC)c1 (stereo not drawn),,"healthy Indonesian humans, plasma","oral, 2 g red ginger suspension, single dose",160 ng/mL
CC1C(c2c(F)ccc(F)c2F)CC(N[14C](=O)c2cnc3c(c2)CC2(C3)C(=O)Nc3ncccc32)C(=O)N1CC(F)(F)F (stereo not drawn),"liquid scintillation counting, refers to: total radioactivity","human, plasma","oral, 50 mg, single dose, 14C-labelled",349 ± 82.6 ng-eq/mL
O=C(CCc1ccc(CNC(C(=O)OC2CCCC2)C2CCCCC2)cn1)NO (stereo not drawn),,"human, plasma","oral, 40 mg once daily, day 7, geometric mean",284 ng/mL
CC(=O)N[C@H](CC(=O)O)C(=O)N[C@H](Cc1c[nH]c2ccccc12)C(=O)N[C@H](Cc1ccccc1)C(=O)N[C@H](CCCCN)C(=O)N[C@H](C)C(=O)N[C@H](Cc1ccccc1)C(=O)N[C@H](Cc1ccc(O)cc1)C(=O)N[C@H](CC(=O)O)C(=O)N[C@H](CCCCN)C(=O)N[C@@H](C(=O)N[C@H](C)C(=O)N[C@H](CCC(=O)O)C(=O)N[C@H](CCCCN)C(=O)N[C@H](Cc1ccccc1)C(=O)N[C@H](CCCCN)C(=O)N[C@H](CCC(=O)O)C(=O)N[C@H](C)C(=O)N[C@H](Cc1ccccc1)C(N)=O)C(C)C,,"human, statin-treated high-risk CHD, both sexes, plasma","oral, 300 mg daily, day 13, 0 to 8 h, mean, undetectable set to 0",7.55 ng/mL
